Published values from different studies.
A part holds a random share of what one study measured. Substitutions count along the parent as printed.

Study 1
Target: Histone acetyltransferase KAT6A, winged helix 2, GST fusion (KAT6A, Homo sapiens, UniProt Q92794, residues 85-181)
Technique: protein binding microarray
Form: double-stranded DNA, one strand shown
Medium: in vitro
Concentration: not given
Setting: 8-mer, flanks averaged, mean of 2 arrays, mostly near background
Relative to: not given
Direction: higher = stronger binding
Construct (chain): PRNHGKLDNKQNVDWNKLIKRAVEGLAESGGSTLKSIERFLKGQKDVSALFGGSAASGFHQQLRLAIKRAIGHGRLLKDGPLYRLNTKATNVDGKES
Strand	E-score
CCTTTGCA	-0.00304
ACGAACCG	-0.0159
ACGTTGTA	-0.163
ATCAAGTA	-0.0627
GAACTAAA	-0.0141
CAATTTCC	-0.0372
AGCAGCCT	-0.0474
GATATATC	-0.0337

Study 2
Target: Centromere-binding protein 1, full length, His-tagged (CBF1, Saccharomyces cerevisiae, UniProt P17106, residues 1-351)
UniProt P17106, sequence (whole entry, looked up): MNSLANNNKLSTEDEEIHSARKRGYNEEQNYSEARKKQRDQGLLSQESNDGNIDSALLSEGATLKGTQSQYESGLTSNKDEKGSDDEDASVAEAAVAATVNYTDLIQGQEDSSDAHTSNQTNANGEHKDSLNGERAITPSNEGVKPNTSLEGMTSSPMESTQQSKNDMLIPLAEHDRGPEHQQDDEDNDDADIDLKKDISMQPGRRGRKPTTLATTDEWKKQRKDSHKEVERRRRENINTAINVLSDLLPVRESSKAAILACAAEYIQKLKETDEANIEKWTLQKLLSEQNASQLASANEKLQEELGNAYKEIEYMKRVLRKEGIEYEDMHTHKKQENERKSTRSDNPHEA
Technique: competition protein-binding microarray
Form: double-stranded DNA, one strand shown
Medium: in vitro
Concentration: 2 µM
Setting: whole 60-bp probe, lowest competitor level
With: Pho4 competitor, 0.05 µM
Direction: higher = stronger binding
Constant ends, left off below: … GTCTTGATTCGCTTGACGCTGCTG
Strand	fluorescence intensity [a.u.]
CGGGGTTAAGTTTGTGTTGTGGGTGGCTTGCAGCAG	64.3
TTCCCAAGTATTGGACACGGGGCTGGAACTTGGAAT	94.2
CTTCTGTAAATTTTTCACGTGTTATGACGCGCCCCG	951
GCCGTTGAGTGCTTCGACGTGGCCGTCGAGTCCCCT	49.9
GACAAGTTACAACTGATCGTGACGGAGAACGGTAAG	92.7
AAATTACTAAGTTTTCACGTGTGATACCCCGTATGA	730
ACAGCCGCGGTTGGGTGCGTGGGTACGGTAATTTAA	54.1
CGTTCCACGGAAAAACACGTGCTTTGCGGGTATCCG	2010
TTCTGAATGGTGTTGGTCGTGGCCGTACCGATTTAT	70
AAAGCGGTAATTTGTTATGTGGGTGCAGATATCTAT	80

Study 3
Target: CCND2, cyclin fold, Cln2 fusion (human)
Technique: yeast growth competition, sequencing
Medium: yeast
Setting: weak parent motif
Relative to: not given
Direction: higher = stronger binding
Starting sequence: SCAPER docking peptide (human); SNARRSLNFGGST; partner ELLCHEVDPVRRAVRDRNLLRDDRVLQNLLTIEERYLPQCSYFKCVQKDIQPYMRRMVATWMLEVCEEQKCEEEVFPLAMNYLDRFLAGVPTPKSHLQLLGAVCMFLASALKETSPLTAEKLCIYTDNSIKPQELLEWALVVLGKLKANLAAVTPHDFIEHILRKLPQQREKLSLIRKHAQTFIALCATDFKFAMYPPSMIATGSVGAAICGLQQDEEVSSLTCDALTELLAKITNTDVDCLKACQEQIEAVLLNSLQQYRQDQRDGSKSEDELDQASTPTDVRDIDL
Variant	normalised enrichment score
SEARRSLNFGGST [N2E]	0.301
SNARRSLAFGGST [N8A]	0.13
SNYRRSLNFGGST [A3Y]	0.372
SNARRSHNFGGST [L7H]	0.255
SNARASANFGGST [R5A L7A]	0.0322
SNARRSLNFGGHT [S12H]	0.504
SNARRSLNFVGST [G10V]	-0.282
SNPRRSLNFGGST [A3P]	0.213

Further values, each from its own experiment
Substance	target	test	system	setting	scale	quantity	result
PhoQ, residues 284 288 289 292 302 303 SSYNSA	PhoP, residues 12 14 15 18 19 SEGLL (Escherichia coli, UniProt P23836)	Sort-seq, refers to: YFP reporter	E. coli	PhoQ-PhoP variant library, with: 10 µM Mg2+	relative to: high Mg2+ state, higher = stronger signaling	fold induction	11.3

For quick reference, copied from above (study 1):
Strand	E-score
CAATTTCC	-0.0372
AGCAGCCT	-0.0474
GATATATC	-0.0337
